Published values collected from several papers.
Each numbered part is a random draw from the data of one study; scales do not carry over between parts. Several values in a cell are separate wells, animals, samples, runs or records.
Sequence of UniProt Q8NG66 (whole entry, looked up): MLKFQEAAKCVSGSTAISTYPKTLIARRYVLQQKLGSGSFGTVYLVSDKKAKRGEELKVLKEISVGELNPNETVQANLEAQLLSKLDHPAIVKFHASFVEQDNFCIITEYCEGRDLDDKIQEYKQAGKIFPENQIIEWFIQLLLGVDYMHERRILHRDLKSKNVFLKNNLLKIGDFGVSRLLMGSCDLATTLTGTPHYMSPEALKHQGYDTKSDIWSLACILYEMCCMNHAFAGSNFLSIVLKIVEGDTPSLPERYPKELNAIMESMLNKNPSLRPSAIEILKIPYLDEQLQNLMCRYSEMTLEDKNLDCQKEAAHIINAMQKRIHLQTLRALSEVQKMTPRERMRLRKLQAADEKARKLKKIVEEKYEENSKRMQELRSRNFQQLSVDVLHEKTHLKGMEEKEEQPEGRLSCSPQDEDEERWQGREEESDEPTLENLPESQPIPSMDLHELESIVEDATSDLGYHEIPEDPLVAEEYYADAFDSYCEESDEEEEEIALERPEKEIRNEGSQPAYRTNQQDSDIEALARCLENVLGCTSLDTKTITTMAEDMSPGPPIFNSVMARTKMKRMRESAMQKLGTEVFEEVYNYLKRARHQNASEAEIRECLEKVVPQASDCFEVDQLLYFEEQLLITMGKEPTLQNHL

Series 1
Target: Protein C-ets-1 (ETS1, Homo sapiens, UniProt P14921, residues 1-441, full length assumed)
Sequence of UniProt P14921 (whole entry, looked up): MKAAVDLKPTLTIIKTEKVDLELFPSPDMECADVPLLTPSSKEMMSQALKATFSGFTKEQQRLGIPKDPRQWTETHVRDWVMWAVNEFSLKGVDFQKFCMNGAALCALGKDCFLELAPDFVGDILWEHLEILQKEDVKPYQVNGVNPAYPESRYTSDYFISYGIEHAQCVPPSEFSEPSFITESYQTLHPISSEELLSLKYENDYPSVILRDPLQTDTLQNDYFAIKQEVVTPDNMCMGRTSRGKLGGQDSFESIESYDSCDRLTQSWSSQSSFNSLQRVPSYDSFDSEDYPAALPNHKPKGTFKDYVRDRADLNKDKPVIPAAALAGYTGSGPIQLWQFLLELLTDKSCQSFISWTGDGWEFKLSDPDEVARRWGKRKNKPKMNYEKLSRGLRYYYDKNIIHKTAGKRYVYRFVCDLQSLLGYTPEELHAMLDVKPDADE
Technique: protein-binding microarray
Form: double-stranded DNA, one strand shown
Sample: in vitro
Concentration: not given
Setting: k-mer, scored over probes, only values ≥0.25
Direction: higher = stronger binding
| Oligonucleotide | E-score |
| --- | --- |
| TCCGGAGA | 0.371 |
| GGACGCAC | 0.258 |
| AAGGGGAA | 0.313 |
| GAGGAAGA | 0.349 |
| ACTCTTCC | 0.328 |
| CGGACGCA | 0.385 |
| AGGATACG | 0.36 |
| CGATAGGA | 0.258 |

Series 2
Target: TAR DNA-binding protein 43, full length, His tag (TARDBP, Homo sapiens, UniProt Q13148, residues 1-414)
Technique: RNA Bind-n-Seq
Form: RNA
Sample: in vitro
Concentration: 20 nM
Setting: 6-mer, flanks averaged, single round
Together with: 150 mM LiCl
Reference: input library
Direction: higher = stronger binding
| Oligonucleotide | 6-mer enrichment (R) |
| --- | --- |
| AACAGA | 0.796 |
| GGGUGG | 1.62 |
| GGAGAA | 1.05 |
| ACCAUU | 0.959 |
| GAGUUC | 0.913 |
| CCUCAU | 0.958 |
| AGAACA | 0.93 |
| UUGGGA | 1.13 |

Other studies, line by line
| SMILES | tested on | test | system | setting | scale | measurement | result |
| --- | --- | --- | --- | --- | --- | --- | --- |
| CC(=O)N[C@@H](Cc1c[nH]c2ccccc12)C(=O)N[C@@H](CCC(=O)C=[N+]=[N-])C(=O)OC(C)C |  |  | C57BL/6 CES1-/- mice, MC-38 tumour | dose not given, day 68 after inoculation, together with: anti-PD-1 | reference: initial | body weight | 103% and 109% and 104% |
| Cc1cn(-c2cc(NC(=O)c3ccc(C)c(Nc4nccc(-c5cccnc5)n4)c3)cc(C(F)(F)F)c2)cn1 | NEK11 (Homo sapiens, UniProt Q8NG66) | enzyme activity, inhibitor |  | 0.5 µM | reference: control | remaining activity | 110% |

Some of these lines once more (series 2):
| Oligonucleotide | 6-mer enrichment (R) |
| --- | --- |
| CCUCAU | 0.958 |
